Assay results pooled from the literature.
Compare with care: the assays were run in different laboratories. Several values in a cell are separate wells, animals, samples, runs or records. Numbers after ± are the reported error.
HTR2A: 5-hydroxytryptamine receptor 2A (HTR2A, Homo sapiens, UniProt P28223)
Sequence of UniProt P28223 (whole entry, looked up): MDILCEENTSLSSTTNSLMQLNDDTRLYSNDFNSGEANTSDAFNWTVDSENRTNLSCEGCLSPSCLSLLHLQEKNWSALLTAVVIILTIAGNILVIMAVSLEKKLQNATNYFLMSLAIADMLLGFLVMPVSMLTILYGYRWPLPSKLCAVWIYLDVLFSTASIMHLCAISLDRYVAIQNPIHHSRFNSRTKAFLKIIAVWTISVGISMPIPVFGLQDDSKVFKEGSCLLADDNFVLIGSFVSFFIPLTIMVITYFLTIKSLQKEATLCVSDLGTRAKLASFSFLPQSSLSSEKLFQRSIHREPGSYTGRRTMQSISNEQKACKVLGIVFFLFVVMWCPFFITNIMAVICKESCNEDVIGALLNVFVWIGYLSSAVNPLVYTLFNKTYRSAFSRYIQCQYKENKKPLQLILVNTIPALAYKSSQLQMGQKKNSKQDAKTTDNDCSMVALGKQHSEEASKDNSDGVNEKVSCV
TOP2A: DNA topoisomerase 2-alpha (TOP2A, Homo sapiens, UniProt P11388)
Sequence of UniProt P11388 (whole entry, looked up): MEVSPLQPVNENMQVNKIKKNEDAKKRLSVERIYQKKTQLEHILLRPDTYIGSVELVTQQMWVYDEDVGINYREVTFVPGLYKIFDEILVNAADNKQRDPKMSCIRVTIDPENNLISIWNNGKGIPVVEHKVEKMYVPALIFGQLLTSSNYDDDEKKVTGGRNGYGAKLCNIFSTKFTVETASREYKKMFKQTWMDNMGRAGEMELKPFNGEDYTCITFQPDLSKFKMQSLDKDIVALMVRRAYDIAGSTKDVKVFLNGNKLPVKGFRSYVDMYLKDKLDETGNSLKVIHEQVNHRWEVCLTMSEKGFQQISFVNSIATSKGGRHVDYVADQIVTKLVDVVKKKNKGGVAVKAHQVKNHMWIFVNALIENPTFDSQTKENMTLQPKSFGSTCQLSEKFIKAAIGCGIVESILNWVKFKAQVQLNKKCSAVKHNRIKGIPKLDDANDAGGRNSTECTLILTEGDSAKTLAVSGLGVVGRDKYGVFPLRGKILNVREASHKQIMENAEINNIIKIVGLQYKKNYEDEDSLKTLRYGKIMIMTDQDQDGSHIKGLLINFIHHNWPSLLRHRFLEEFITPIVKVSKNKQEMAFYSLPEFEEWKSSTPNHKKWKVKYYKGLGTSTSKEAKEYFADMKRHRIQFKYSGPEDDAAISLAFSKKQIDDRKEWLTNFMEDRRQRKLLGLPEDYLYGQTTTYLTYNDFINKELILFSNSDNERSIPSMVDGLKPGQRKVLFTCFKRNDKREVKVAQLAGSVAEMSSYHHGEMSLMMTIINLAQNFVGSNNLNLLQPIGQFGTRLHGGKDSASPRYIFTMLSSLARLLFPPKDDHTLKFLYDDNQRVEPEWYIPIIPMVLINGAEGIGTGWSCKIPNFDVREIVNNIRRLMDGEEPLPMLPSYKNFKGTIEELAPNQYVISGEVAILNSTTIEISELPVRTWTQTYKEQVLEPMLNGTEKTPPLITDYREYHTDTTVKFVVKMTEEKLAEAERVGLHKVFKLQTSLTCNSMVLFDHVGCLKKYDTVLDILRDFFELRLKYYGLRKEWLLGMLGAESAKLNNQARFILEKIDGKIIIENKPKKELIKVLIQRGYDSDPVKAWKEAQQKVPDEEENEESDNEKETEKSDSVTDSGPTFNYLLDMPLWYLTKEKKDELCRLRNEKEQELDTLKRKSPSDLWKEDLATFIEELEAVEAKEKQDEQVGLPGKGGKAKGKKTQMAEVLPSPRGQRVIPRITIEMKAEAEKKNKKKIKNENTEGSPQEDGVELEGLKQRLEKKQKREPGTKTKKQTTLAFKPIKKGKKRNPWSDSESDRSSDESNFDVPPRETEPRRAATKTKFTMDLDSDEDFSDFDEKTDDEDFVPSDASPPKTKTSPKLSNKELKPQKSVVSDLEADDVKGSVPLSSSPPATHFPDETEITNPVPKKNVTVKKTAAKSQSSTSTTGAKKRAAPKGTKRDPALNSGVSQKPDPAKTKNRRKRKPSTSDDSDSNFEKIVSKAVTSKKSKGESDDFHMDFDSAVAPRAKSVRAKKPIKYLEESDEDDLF
T1: ssDNA, aptamer; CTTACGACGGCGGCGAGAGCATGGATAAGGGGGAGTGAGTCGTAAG
Sequence of UniProt Q64663 (whole entry, unmodified, looked up): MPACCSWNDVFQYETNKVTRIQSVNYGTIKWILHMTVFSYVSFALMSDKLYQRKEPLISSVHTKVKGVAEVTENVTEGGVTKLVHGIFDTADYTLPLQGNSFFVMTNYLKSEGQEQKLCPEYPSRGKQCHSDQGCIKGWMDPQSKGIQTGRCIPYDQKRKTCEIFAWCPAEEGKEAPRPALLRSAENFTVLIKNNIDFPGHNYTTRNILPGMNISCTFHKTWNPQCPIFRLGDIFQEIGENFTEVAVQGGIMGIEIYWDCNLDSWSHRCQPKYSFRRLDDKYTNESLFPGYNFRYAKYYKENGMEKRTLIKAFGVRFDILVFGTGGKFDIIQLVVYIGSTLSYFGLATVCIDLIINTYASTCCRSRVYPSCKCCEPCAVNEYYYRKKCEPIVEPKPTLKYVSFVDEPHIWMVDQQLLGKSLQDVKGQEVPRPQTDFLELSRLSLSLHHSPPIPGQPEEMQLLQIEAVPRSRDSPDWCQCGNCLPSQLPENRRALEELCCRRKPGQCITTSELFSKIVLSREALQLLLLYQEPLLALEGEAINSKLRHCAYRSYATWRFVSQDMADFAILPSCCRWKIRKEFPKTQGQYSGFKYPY
Sequence of UniProt Q16774 (whole entry, unmodified, looked up): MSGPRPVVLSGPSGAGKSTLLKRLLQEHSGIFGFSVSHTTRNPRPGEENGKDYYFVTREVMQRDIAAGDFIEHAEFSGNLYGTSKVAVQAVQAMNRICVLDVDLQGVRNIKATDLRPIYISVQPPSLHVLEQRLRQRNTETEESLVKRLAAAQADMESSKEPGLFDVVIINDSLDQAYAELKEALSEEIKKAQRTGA
Sequence of UniProt Q9UH17 (whole entry, looked up): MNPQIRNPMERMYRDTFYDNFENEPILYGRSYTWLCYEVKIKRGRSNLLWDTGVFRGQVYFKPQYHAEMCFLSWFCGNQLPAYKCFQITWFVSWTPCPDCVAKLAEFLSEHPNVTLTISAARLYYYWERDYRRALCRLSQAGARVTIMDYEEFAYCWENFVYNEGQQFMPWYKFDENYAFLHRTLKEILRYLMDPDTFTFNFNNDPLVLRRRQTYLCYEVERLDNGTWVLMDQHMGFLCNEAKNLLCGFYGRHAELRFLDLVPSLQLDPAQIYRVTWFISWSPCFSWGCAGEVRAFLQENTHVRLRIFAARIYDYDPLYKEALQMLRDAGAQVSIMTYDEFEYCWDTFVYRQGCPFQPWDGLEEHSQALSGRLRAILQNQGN
Sequence of UniProt P51575 (whole entry, unmodified, looked up): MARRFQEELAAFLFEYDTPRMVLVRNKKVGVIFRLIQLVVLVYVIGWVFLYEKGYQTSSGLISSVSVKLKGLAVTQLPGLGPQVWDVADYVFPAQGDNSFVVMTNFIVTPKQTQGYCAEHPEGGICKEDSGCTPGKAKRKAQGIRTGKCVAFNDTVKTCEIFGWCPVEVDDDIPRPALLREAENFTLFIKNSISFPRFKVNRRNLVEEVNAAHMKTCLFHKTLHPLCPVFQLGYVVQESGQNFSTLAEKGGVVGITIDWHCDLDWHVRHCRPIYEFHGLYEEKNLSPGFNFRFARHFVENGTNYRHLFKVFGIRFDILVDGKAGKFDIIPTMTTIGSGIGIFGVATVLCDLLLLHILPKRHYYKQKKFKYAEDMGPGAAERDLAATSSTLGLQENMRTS
Sequence of UniProt Q16644 (whole entry, looked up): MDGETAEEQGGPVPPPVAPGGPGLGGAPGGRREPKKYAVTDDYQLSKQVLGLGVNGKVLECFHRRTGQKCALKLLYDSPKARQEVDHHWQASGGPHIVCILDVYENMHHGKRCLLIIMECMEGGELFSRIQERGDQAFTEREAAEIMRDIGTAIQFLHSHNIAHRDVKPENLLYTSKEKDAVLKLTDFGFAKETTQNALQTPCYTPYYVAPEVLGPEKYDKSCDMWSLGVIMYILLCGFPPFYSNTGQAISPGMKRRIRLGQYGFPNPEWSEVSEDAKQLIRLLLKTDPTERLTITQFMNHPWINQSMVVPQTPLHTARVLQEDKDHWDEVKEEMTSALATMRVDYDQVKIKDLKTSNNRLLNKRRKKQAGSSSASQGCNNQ
Sequence of UniProt Q08638 (whole entry, looked up): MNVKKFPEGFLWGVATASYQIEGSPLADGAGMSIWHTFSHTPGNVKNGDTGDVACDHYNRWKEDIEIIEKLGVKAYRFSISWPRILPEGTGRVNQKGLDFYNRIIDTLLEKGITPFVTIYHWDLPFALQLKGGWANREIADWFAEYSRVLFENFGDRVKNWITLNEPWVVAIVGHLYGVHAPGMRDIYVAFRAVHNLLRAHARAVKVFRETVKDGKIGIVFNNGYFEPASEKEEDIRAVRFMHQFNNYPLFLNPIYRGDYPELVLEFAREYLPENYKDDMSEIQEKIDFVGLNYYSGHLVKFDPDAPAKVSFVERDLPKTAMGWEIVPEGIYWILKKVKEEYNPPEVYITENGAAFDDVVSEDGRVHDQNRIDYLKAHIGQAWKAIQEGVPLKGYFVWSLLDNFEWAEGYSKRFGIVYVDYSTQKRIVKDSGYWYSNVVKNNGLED
Sequence of UniProt P40337 (whole entry, unmodified, looked up): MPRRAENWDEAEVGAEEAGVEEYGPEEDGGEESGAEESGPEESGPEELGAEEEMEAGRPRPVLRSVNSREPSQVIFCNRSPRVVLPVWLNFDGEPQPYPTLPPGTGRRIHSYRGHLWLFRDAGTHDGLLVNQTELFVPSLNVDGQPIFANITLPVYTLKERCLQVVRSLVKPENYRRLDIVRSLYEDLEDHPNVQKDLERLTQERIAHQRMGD
Sequence of UniProt O35678 (whole entry, looked up): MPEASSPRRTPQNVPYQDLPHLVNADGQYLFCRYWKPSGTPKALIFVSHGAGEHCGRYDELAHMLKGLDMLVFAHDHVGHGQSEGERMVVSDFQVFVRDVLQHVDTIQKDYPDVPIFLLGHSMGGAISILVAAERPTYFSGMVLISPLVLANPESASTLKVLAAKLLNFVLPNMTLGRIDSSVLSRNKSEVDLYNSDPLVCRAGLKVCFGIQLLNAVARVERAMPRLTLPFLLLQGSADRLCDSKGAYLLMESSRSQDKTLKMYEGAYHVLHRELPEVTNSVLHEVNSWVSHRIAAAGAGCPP

Structure (SMILES)	target or system	assay	system	conditions	how to read	endpoint	value
Nc1ncnc2c1ncn2[C@@H]1O[C@H](CO[P@](=O)(O)O[P@](=O)(O)O[P@@](=O)(O)S)[C@@H](O)[C@H]1O	GUK1 (Homo sapiens, UniProt Q16774)	ITC	–	molar ratio 0.297	–	ΔH	-1.8 kcal/mol
CC[C@@H]1[C@H](F)C(=O)N[C@@H]1COc1nccc2cc(C(N)=O)c(OC)cc12	FER (Homo sapiens, UniProt P16591)	ATP-site probe binding, ActivX profiling	THP-1 cell lysate	0.2 mM, Lys1 site	–	inhibition	-7.6%
Clc1cccc(OC[C@@H]2CN(CCN3CCc4ccccc43)CCO2)c1	HTR2A	radioligand binding	–	concentration not given, with: [3H]ketanserin	–	inhibition	78%
Nc1ncnc2c1ncn2[C@@H]1O[C@H](COP(=O)(O)OP(=O)(O)OP(=O)(O)O)[C@@H](O)[C@H]1O	Hexokinase-3 (HK3, Homo sapiens, UniProt P52790, E254A)	substrate	–	mutant E254A, with: glucose 0.5 mM	–	kcat	71 ± 2 s⁻¹
O=c1nc(SCc2cc(F)cc(C(F)(F)F)c2)nc(SCc2csc3ccc(Cl)cc23)[nH]1	TOP2A	DNA cleavage	–	1.95 µM, replicate 1	–	linear DNA	0%
C[S+](CC[C@H](N)C(=O)[O-])C[C@H]1O[C@@H](n2cnc3c(N)ncnc32)[C@H](O)[C@@H]1O (stereo partly drawn)	KMT2C (Homo sapiens, UniProt Q8NEZ4)	substrate, enzyme-coupled methylation	–	with: H3 peptide 100 µM	–	apparent Vmax	0.9 ± 0.06 µM/min
COc1ccccc1N1CCN(CCCCN2CCc3ccccc3C2=O)CC1	HTR7 (Homo sapiens, UniProt P34969)	radioligand binding	–	concentration not given, with: [3H]LSD	–	inhibition	98.2%
C=CC(=O)N1CCC(COCC(=O)N2CCN(c3nc(-c4cnc(N)nc4C(F)F)nc(N4CCOC[C@@H]4C)n3)CC2)CC1	TGFBR2 (Homo sapiens, UniProt P37173)	KINOMEscan	–	1 µM	–	remaining binding	100%
CCc1cnn2c(NCc3ccc[n+]([O-])c3)cc(N3CCCC[C@H]3CCO)nc12	BRD4 (Homo sapiens, UniProt O60885)	19F NMR, refers to: tyrosine 118	–	24 µM	reference: free protein	chemical shift change	-0.068 ppm
CC[C@@H](C)[C@@H](NC(=O)[C@@H](Cc1ccc(O)cc1)NC(=O)[C@H]1CCCN1C(=O)[C@@H](CCCNC(=N)N)NC(=O)[C@H](N)Cc1c[nH]cn1)C(=O)N[C@H](C)C(=O)N[C@H](Cc1c[nH]cn1)C(=O)N[C@H](CCCNC(=N)N)C(=O)N[C@@H](C(=O)N[C@H](Cc1ccc(O)cc1)C(=O)N[C@H](CO)C(=O)N[C@H](Cc1ccccc1)C(N)=O)C(C)C	Transferrin receptor protein 1 (Tfrc, Mus musculus, UniProt Q62351)	flow cytometry	RAW264.7	48 h, pH 6, replicate 3, unit not given	reference: 0 h	surface TFRC expression	1.13
Nc1ccn([C@H]2C[C@H](O)[C@@H](COP(=O)(O)OP(=O)(O)OP(=O)(O)O)O2)c(=O)n1	Gag-Pol polyprotein, reverse transcriptase (gag-pol, Human immunodeficiency virus type 1 group M subtype B, UniProt P04585)	nucleotide incorporation, substrate	HIV-1	with: RNA template	–	Vmax	0.29 product fraction
O=C1c2ccccc2CCN1CCCCN1CCN(c2ccccn2)CC1	HTR2A	radioligand binding	–	concentration not given, with: [3H]ketanserin	–	inhibition	95.2%
CC1Cc2ccccc2N1C(=O)NCCCCN(C)[C@@H]1Cc2cccc3[nH]c(=O)n(c23)C1 (mixture of isomers)	HTR2A	binding	–	with: [3H]5-HT	–	Hill slope	-0.7 ± 0.1
NCC(=O)O	Sodium- and chloride-dependent neutral and basic amino acid transporter B(0+) (Slc6a14, Mus musculus, UniProt Q9JMA9)	transport current, two-electrode voltage clamp	Xenopus oocytes	1 to 2 mM, holding potential -40 mV	–	current amplitude	1450 ± 98.8 nA
CC[C@H](C)[C@H](NC(=O)[C@H](CCCNC(=N)N)NC(=O)[C@H](Cc1c[nH]cn1)NC(=O)[C@H](CCCNC(=N)N)NC(=O)[C@H](CC(=O)O)NC(=O)[C@H](CC(=O)O)NC(=O)[C@@H](NC(=O)[C@H](CC(=O)O)NC(=O)[C@@H]1CCCN1C(=O)[C@@H](N)CC(C)C)[C@@H](C)O)C(=O)N[C@@H](CCC(=O)O)C(=O)N[C@@H](CCC(=O)O)C(=O)N[C@@H](CCCCN)C(=O)N[C@@H](CCCNC(=N)N)C(=O)N[C@@H](CCCCN)C(=O)N[C@@H](CCCNC(=N)N)C(=O)N[C@H](C(=O)N[C@@H](Cc1ccc(O)cc1)C(=O)N[C@@H](CCC(=O)O)C(=O)N[C@H](C(=O)N[C@@H](Cc1ccccc1)C(=O)N[C@@H](CCCCN)C(=O)N[C@@H](CO)C(=O)N[C@H](C(=O)N[C@@H](CCSC)C(=O)N[C@@H](CCCCN)C(=O)N[C@@H](CCCCN)C(=O)N[C@@H](CO)C(=O)N1CCC[C@H]1C(=O)N[C@@H](Cc1ccccc1)C(=O)N[C@@H](CC(N)=O)C(=O)NCC(=O)N1CCC[C@H]1C(=O)O)[C@@H](C)CC)[C@@H](C)O)[C@@H](C)O	IκBα (67-287)	binding, isothermal titration calorimetry	–	concentration not given, pH 7.5, range over 294 to 303 K	–	heat capacity change (ΔCp)	-0.4 kcal/(mol·K)
CN1CCN(c2cc(-c3ccncc3)c(-c3ccc4ccccc4c3)nn2)CC1	ADCYAP1R1 (Homo sapiens, UniProt P41586)	agonist, FLIPR	–	12.5 µM	–	activation	-1.5%
O=[N+]([O-])c1ccc(O[C@@H]2O[C@H](CO)[C@@H](O)[C@H](O)[C@H]2O)cc1	bglA (Thermotoga maritima, UniProt Q08638)	substrate, absorbance	–	pH 6.8, 37 °C, with: p-nitrophenyl β-D-glucopyranoside 0.125-4 mM	–	kcat	85 ± 4 s⁻¹
O=C(O)c1ccc(Nc2ncc3c(n2)-c2ccc(Cl)cc2C(c2c(F)cccc2F)=NC3)cc1	human Flt3(D835Y)	kinase activity	–	1 µM	–	remaining activity	81%
O=C(COP(=O)(O)O)[C@@H](O)[C@H](O)[C@H](O)COP(=O)(O)O	Actin, aortic smooth muscle (ACTA2, Homo sapiens, UniProt P62736)	thermal proteome profiling, refers to: ACTA2	HepG2 cell lysate	concentration not given, 57 over 37 °C, mean	reference: compound over control	thermal stability ratio	0.62
Nc1nc2c(ncn2[C@@H]2O[C@H](COP(=O)(O)O)[C@@H](O)[C@H]2O)c(=O)[nH]1	GUK1 (Homo sapiens, UniProt Q16774, Y53A)	enzyme activity, NADH-coupled	–	31.25 µM	–	reaction rate	-1.08 s⁻¹ and -0.456 s⁻¹ and -0.619 s⁻¹

Structure (SMILES)	target or system	assay	system	conditions	how to read	endpoint	value
CC(C)(C)NC[C@H](O)COc1nsnc1N1CCOCC1	Nedd8-cullin1 interaction	neddylation, AlphaScreen	–	100 µM	–	inhibition	35.2%
Nc1ncnc2c1ncn2[C@@H]1O[C@H](COP(=O)(O)OP(=O)(O)NP(=O)(O)O)[C@@H](O)[C@H]1O	Cell cycle histidine kinase CckA, CA domain (Caulobacter vibrioides, UniProt Q9X688)	ITC	–	without c-di-GMP	–	ΔH	-1.91 ± 0.0973 kcal/mol
NCCCCC(=O)O	SLC6A6 (Homo sapiens, UniProt P31641, Y138A)	binding, microscale thermophoresis	–	122 nM, room temperature, with: 50 nM labelled protein	higher = more binding	normalised MST signal	-0.00791
Nc1ncnc2c1ncn2[C@@H]1O[C@H](COP(=O)(O)CP(=O)(O)OP(=O)(O)O)[C@@H](O)[C@H]1O	P2X purinoceptor 1 (P2RX1, Homo sapiens, UniProt P51575, E122A)	calcium influx	–	31.6 µM	reference: ionomycin response	calcium influx	100% and 94.4%
CCC1(O)CCCN(C(=O)c2ccc(-c3ccc(F)c(NC(=O)CCl)c3)cc2)C1 (stereo not drawn)	DNA dC->dU-editing enzyme APOBEC-3B, C-terminal domain (Homo sapiens, UniProt Q9UH17)	covalent modifier, intact protein mass spectrometry	–	500 µM, 3 h, 20-fold molar excess	–	unmodified protein	0%
COc1cc(O)c2c(c1)oc(=O)c1c3cc(O)c(O)cc3oc21	MAL12 (Saccharomyces cerevisiae S288c, UniProt P53341)	circular dichroism	–	molar ratio 1:1	–	α-Helix content	20.8%
Cc1cc(Nc2ccc(S(F)(F)(F)(F)F)cc2)n2nc(C(C)(F)F)nc2n1	Plasmodium vivax	12-lead Holter ECG	human malaria patients	oral, 600 mg, QTc above 500 ms	–	patients with QTcF above threshold	0%
COCCC(=O)N1CCC(Oc2ccccc2)C1 (stereo not drawn)	STUB1 (Homo sapiens, UniProt Q9UNE7)	binding, affinity selection mass spectrometry	–	–	reference: other proteins in batch	log fold enrichment	-0.114
CCC(=O)NCC[C@@H]1CCc2cc(O)c3c(c21)CCO3	SULT1A1 (Homo sapiens, UniProt P50225)	sulfation, substrate	–	10 µM, pH 7.0, substrate 1	–	Vmax	7.86 ± 0.76 nmol/min/mg
Nc1ncnc2c1ncn2[C@@H]1O[C@H](COP(=O)(O)OP(=O)(O)OP(=O)(O)O)[C@@H](O)[C@H]1O	P2X purinoceptor 7 (P2rx7, Rattus norvegicus, UniProt Q64663, I214G)	ion current, agonist, two-electrode voltage clamp	Xenopus laevis oocytes	300 µM	reference: highest concentration response	normalized current	0.747 and 0.677 and 0.711
N#Cc1cnn(C(=O)N2CCN(C(c3ccc(OCc4ccccc4)cc3)c3ccc(OCc4ccccc4)cc3)CC2)c1	Mgll (Mus musculus, UniProt O35678)	competitive ABPP	mouse brain proteome	–	reference: Mgll over ABHD6	selectivity ratio	> 1000 fold
O=S(O)(O)=S	Uncharacterized protein (Pelagibacter ubique, UniProt Q4FKX4)	differential scanning fluorimetry	Candidatus Pelagibacter ubique	in-house screen	–	thermal shift	5.01 °C
COc1cc(F)ccc1-c1ncnc(Nc2cccc(C[S@](C)(=N)=O)c2)n1	MAPKAPK3 (Homo sapiens, UniProt Q16644)	kinase activity	–	10 µM, with: 10 µM ATP	–	remaining activity	90%
CC(=O)N[C@H](C(=O)N1C[C@H](O)C[C@H]1C(=O)NCc1ccc(-c2scnc2C)cc1)C(C)(C)SCCCCCCNC(=O)C[C@@H]1N=C(c2ccc(Cl)cc2)c2c(sc(C)c2C)-n2c(C)nnc21	BRD2/VHL, BD1; with VCB (Homo sapiens, UniProt P25440+P40337)	ITC	–	25 °C, BRD2 BD1, ternary	–	ΔG	-9 ± 0.3 kcal/mol
Cc1n[nH]c2ccc(-c3cc(OC[C@@H](N)Cc4ccccc4)cnc3-c3ccoc3)cc12	Protein kinase C-like 1 (Candida albicans, UniProt P43057)	kinase binding, competitor, MIB/MS competition, refers to: PKC1	Candida albicans cell lysate	1 µM	reference: DMSO	log2 fold change	0.00546
CN(C)C(=O)C(CCN1CCC(O)(c2ccc(Cl)cc2)CC1)(c1ccccc1)c1ccccc1	Calcium-activated potassium channel subunit alpha-1, with LRRC26 γ1 subunit (KCNMA1, Homo sapiens, UniProt Q12791)	ion current, inside-out patch, fit of G-V curve	BKα/γ1 channel	10 µM, with: nominally 0 Ca2+	–	V1/2	-6.24 mV
O=c1nc(SCc2cc(F)cc(C(F)(F)F)c2)nc(SCc2ccc3sccc3c2)[nH]1	TOP2A	decatenation	–	15.6 µM, replicate 1	–	decatenated DNA	0.56%
Cc1cc(Cl)cc(C)c1OCC(=O)NC(C)C	SLC6A19 (Homo sapiens, UniProt Q695T7)	inhibitor, FLIPR membrane potential	CHO-BC cells	30 µM, with: L-leucine 1.5 mM	reference: cinromide	activity	83 ± 4%
Nc1ncnc2c1ncn2[C@@H]1O[C@H](COP(=O)(O)OP(=O)(O)OP(=O)(O)O)[C@@H](O)[C@H]1O	T1, ssDNA, aptamer	ITC	–	–	–	Kd	646 nM
